Measured values pooled from the literature.
Compare with care: the assays were run in different laboratories. ± gives the spread as reported.
Organism: Trypanosoma brucei brucei

Compound | test | test system | conditions | scale | endpoint | value
Cc1ccc(N2Cc3cc(NC(=O)N4CCN(c5ccc(F)cc5)CC4)ccc3C2=O)cc1 | parasite growth, resazurin | Squib 427 | 3 d | – | IC50 | > 64000 nM
O=[N+]([O-])c1ccc(/C=N/N=C/c2ccc(Br)cc2)o1 | parasite growth, CellTiter-Glo | GUTat3.1 bloodstream form | 72 h | – | IC50 | 760 ± 350 nM
Cc1ccc2c(c1)nc(NC(=O)c1cccc(C(F)(F)F)c1)n2[C@H]1CC[C@H](N)CC1 | cell growth, CellTiter-Glo | Lister 427 bloodstream form | 48 h | – | EC50 | 290 nM
COc1ccc(C[Se][C@@H]2O[C@H](COC(C)=O)[C@@H](OC(C)=O)[C@H](OC(C)=O)[C@H]2OC(C)=O)cc1 | – | bloodstream form | 5 µM, 24 h, 1 % DMSO | – | viability | 93.1 ± 9.3%
Cc1nc(C(=O)N2CCC[C@H]2C(=O)N[C@@H](CCC(=O)O)C(=O)N[C@@H](CC(C)C)C(=O)NC(C)(C)C(=O)N[C@@H](CC(C)C)C(=O)N[C@@H](CC(C)C)C(=O)NC(C)(C)C(=O)NC(C)(C)C(=O)NCCC(=O)NC2(CN(C)C)CCC2)co1 | TMRE | bloodstream form | concentration not given | relative to: untreated | mitochondrial membrane potential | no effect
CC(=O)OC[C@H]1O[C@@H]([Se][Se][C@@H]2O[C@H](COC(C)=O)[C@H](OC(C)=O)[C@H](OC(C)=O)[C@H]2OC(C)=O)[C@H](OC(C)=O)[C@@H](OC(C)=O)[C@H]1OC(C)=O | – | bloodstream form | EC50, 4 h | relative to: DMSO | glucose consumption | < 30%
CCOC(=O)CNC(=O)CN1C(=O)S/C(=C\c2ccc(C)cc2)C1=O | cell viability | GUTat3.1 | 72 h | – | IC50 | > 63000 nM
O=[N+]([O-])c1ccc(/C=N/N=C/c2ccccc2)s1 | parasite growth, CellTiter-Glo | GUTat3.1 bloodstream form | 72 h | – | IC50 | 300 ± 100 nM
O=C(Nc1ccc2c(c1)CN(c1ccccc1)C2=O)N1CC[C@H](F)C1 | parasite growth, resazurin | Squib 427 | 3 d | – | IC50 | > 64000 nM
O=[N+]([O-])c1ccc(/C=N/N=C/c2ccc(F)cc2)s1 | parasite growth, CellTiter-Glo | GUTat3.1 bloodstream form | 72 h | – | IC50 | 460 ± 200 nM
C=Cc1cn([C@@H]2O[C@H](CO)C[C@H]2O)c2ncnc(N)c12 | parasite growth, resazurin | Squib 427 | 72 h | – | EC50 | 36 ± 5 nM
CC(Nc1c(-c2c(F)cc(OCCCN(C)C)cc2F)c(Cl)nc2ncnn12)C(C)(C)C (stereo not shown) | – | Lister 427 | 4 µM, 12 h | – | viability | ~1%
Nc1ncnc2c1c(I)cn2[C@@H]1O[C@H](CO)C[C@H]1O | parasite growth, resazurin | Squib 427 | 72 h | – | EC50 | 8.5 ± 0.4 nM
O=C(Nc1ccc2c(c1)CN(c1ccc(Cl)cc1)C2=O)N1CC[C@H](F)C1 | parasite growth, resazurin | Squib 427 | 3 d | – | IC50 | > 64000 nM
Nc1ncnc2c1ccn2[C@@H]1O[C@H](CO)C[C@H]1O | parasite growth, resazurin | Squib 427 | 72 h | – | EC50 | 48 ± 9 nM
CC(=O)OC[C@H]1O[C@@H]([Se]c2ccccc2)[C@H](OC(C)=O)[C@@H](OC(C)=O)[C@@H]1OC(C)=O | – | bloodstream form | 5 µM, 24 h, 1 % DMSO | – | viability | 96.4 ± 13.4%
CCOC(=O)C(NC(=O)CN1C(=O)N/C(=C\c2ccc3c(c2)OCO3)C1=O)C(C)C (stereo not shown) | cell viability | GUTat3.1 | 72 h | – | IC50 | > 66000 nM
O=C(Nc1ccc2c(c1)CN(c1ccc(Br)cc1)C2=O)N1CCN(c2ccc(F)cc2)CC1 | – | Squib 427, mouse, infected | oral, 50 mg/kg twice daily, day 4 | – | parasitaemia | 8.9 log10
Cc1ccc(/C=N/N=C/c2ccc([N+](=O)[O-])o2)cc1 | parasite growth, CellTiter-Glo | GUTat3.1 bloodstream form | 72 h | – | IC50 | 3250 ± 1940 nM

Compound | test | test system | conditions | scale | endpoint | value
CC(=O)OC[C@H]1O[C@@H]([Se][C@@H]2O[C@H](COC(C)=O)[C@@H](OC(C)=O)[C@H](OC(C)=O)[C@H]2OC(C)=O)[C@H](OC(C)=O)[C@@H](OC(C)=O)[C@@H]1OC(C)=O | viability | bloodstream form | 24 h | – | EC50 | 3640 ± 110 nM
Cc1ccc(N2Cc3cc(NC(=O)N4CCN(c5cccc(C(F)(F)F)c5)CC4)ccc3C2=O)cc1 | cell growth, resazurin | Squib 427 | 3 days | – | IC50 | 2400 nM
C#Cc1cn([C@@H]2O[C@H](CO)C[C@H]2O)c2ncnc(N)c12 | parasite growth, resazurin | Squib 427 | 72 h | – | EC50 | 5 ± 2 nM
CC(=O)N[C@@H]1[C@@H](OC(C)=O)[C@H](OC(C)=O)[C@@H](COC(C)=O)O[C@H]1[Se]C(C)=O | – | bloodstream form | 5 µM, 24 h, 1 % DMSO | – | viability | 96.4 ± 13.4%
O=C(Nc1ccc2c(c1)CN(c1ccc(Cl)cc1)C2=O)N1CC[C@H](O)C1 | cell growth, resazurin | Squib 427 | concentration not given, 3 days | – | growth inhibition | inactive
Cc1ncnc2c1c(C1=CCSCC1)cn2[C@@H]1O[C@H](CO)[C@@H](O)[C@H]1O | resazurin | Squib 427 | axenic HMI-9 medium | – | EC50 | > 64000 nM
O=[N+]([O-])c1ccc(/C=N/N=C/c2ccc([N+](=O)[O-])o2)cc1 | parasite growth, CellTiter-Glo | GUTat3.1 bloodstream form | 72 h | – | IC50 | 1290 ± 380 nM
CS[Se][C@@H]1O[C@H](COC(C)=O)[C@@H](OC(C)=O)[C@H](OC(C)=O)[C@H]1OC(C)=O | – | bloodstream form | 5 µM, 24 h, 1 % DMSO | – | viability | 83%
O=[N+]([O-])c1ccc(/C=N/N=C/c2ccc(F)cc2)o1 | parasite growth, CellTiter-Glo | GUTat3.1 bloodstream form | 72 h | – | IC50 | 2030 ± 950 nM
O=C(Nc1ccc2c(c1)CN(c1ccc(F)c(F)c1)C2=O)N1CCN(c2ccc(F)cc2)CC1 | parasite growth, resazurin | Squib 427 | 3 d | – | IC50 | > 64000 nM
CC[Se][C@@H]1O[C@H](COC(C)=O)[C@@H](OC(C)=O)[C@H](OC(C)=O)[C@H]1NC(C)=O | – | bloodstream form | 5 µM, 24 h, 1 % DMSO | – | viability | 98.3 ± 20.7%
CCOC(=O)C(NC(=O)CN1C(=O)/C(=C/c2ccc3c(c2)OCO3)SC1=S)C(C)C (stereo not shown) | cell viability | GUTat3.1 | 72 h | – | IC50 | > 69000 nM
CC(=O)OC[C@H]1O[C@@H]([Se]Cc2ccccc2)[C@H](OC(C)=O)[C@@H](OC(C)=O)[C@@H]1OC(C)=O | – | bloodstream form | 5 µM, 24 h, 1 % DMSO | – | viability | 94.2 ± 23.5%
CC(C)Oc1ncnc2c1c(Cl)cn2[C@@H]1O[C@H](CO)[C@@H](O)[C@H]1O | parasite growth, resazurin | Squib 427 | 72 h | – | EC50 | 90 ± 40 nM
O=[N+]([O-])c1ccc(/C=N/N=C/c2ccc(Cl)cc2)o1 | parasite growth, CellTiter-Glo | GUTat3.1 bloodstream form | 72 h | – | IC50 | 1020 ± 430 nM
CC(=O)N[C@@H]1[C@@H](OC(C)=O)[C@H](OC(C)=O)[C@@H](COC(C)=O)O[C@H]1[Se]Cc1ccc(C#N)cc1 | – | bloodstream form | 5 µM, 24 h, 1 % DMSO | – | viability | 93.8 ± 21.5%
Nc1ncnc2c1c(Br)cn2[C@H]1C[C@H](O)[C@@H](CO)O1 | parasite growth, resazurin | Squib 427 | 72 h | – | EC50 | 460 ± 80 nM
CCc1cccc(Nc2c(C(N)=O)cnc3c(C)cc(-c4ccc5cnn(C)c5c4)cc23)c1 | cell growth, Alamar blue | bloodstream form, strain 427 | 48 h | – | EC50 | 8700 ± 1800 nM
